Assay results collected from several papers.
Each line is one published result; not all experiments were run side by side.
Target: Serine/threonine-protein kinase A-Raf (ARAF, Homo sapiens, UniProt P10398)
Sequence (P10398 1-606, as in one of the studies): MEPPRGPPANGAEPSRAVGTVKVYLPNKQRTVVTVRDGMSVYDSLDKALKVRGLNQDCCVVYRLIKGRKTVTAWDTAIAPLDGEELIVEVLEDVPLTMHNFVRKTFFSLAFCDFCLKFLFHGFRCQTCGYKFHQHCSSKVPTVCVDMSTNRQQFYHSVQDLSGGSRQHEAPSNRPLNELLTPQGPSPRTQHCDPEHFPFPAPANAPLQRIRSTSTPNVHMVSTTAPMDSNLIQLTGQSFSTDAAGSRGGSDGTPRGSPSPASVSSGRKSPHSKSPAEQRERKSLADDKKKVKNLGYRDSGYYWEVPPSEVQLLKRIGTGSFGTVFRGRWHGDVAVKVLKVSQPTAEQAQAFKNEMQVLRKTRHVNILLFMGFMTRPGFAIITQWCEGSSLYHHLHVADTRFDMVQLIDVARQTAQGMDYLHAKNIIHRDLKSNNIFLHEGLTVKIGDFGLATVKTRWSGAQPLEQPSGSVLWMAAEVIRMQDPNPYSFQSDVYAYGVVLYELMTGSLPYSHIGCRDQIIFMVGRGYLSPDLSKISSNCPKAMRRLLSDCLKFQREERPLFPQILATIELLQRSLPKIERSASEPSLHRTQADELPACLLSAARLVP

SMILES	assay	test system	conditions	scale	measurement	value
NC(=O)[C@@H](O)C[C@H]1CCc2sc3ncnc(O[C@H]4CC[C@H](N5CCOCC5)CC4)c3c21	enzyme activity, inhibitor	–	10 µM	–	inhibition	10%
CS(=O)(=O)Nc1cccc(-c2csc3cnc(Nc4ccc(N5CCN(CCCCCOc6cccc7c6C(=O)N(C6CCC(=O)NC6=O)C7=O)CC5)cc4)nc23)c1 (stereo not shown)	probe labelling, inhibitor, KiNativ chemoproteomics	MOLT-4	1 µM	–	inhibition	-11%
CN1CC[C@@H](COc2cnc(C#N)cc2-c2ccn3nc(NC(=O)C4CC4)cc3c2)C1	enzyme activity, inhibitor	–	1 µM	–	inhibition	0%
Cc1nc2c(F)cc(-c3nc(Nc4ccc(CNC(=O)CCCCCCC(=O)NO)cc4)ncc3F)cc2n1C(C)C	enzyme activity, inhibitor	–	1 µM	–	inhibition	66%
C=CC(=O)Nc1cc(-c2nn(C3CCN(CCNC(=O)[C@H](C)CCC45CC6CC(CC(C6)C4)C5)CC3)c3ncnc(N)c23)ccc1Oc1ccccc1	inhibitor, KiNativ profiling	biochemical	2 µM	–	inhibition	-39.6%
NC(=O)C[C@H]1CCc2sc3ncnc(O[C@H]4CC[C@H](N5CCOCC5)CC4)c3c21	enzyme activity, inhibitor	–	10 µM	–	inhibition	11%
CNC(=O)C[C@H](Cc1ccc(C#N)cc1)NC(=O)c1cc(-c2ccc(CN[C@H](C)c3ccc(C)cc3)o2)ccc1Cl	enzyme activity, inhibitor	–	1 µM	–	activity vs control	99%
O=C(Cc1ccc(OCc2ccccc2)cc1)NC1(C(=O)O)CCN(C(=O)c2ccc(-c3cccc(Cl)c3)cc2)CC1	enzyme activity, inhibitor	–	10 µM	–	activity vs control	91%
COc1ccc(C(=O)/C=C/c2ccccc2-c2c[nH]c3ccc(C#N)cc23)c(O)c1	enzyme activity, inhibitor	–	20 µM	–	inhibition	6%
Nc1ncc(-c2cc(-c3cnn(CC(F)(F)F)c3)ncc2F)nc1C(=O)NC1CNCC(F)C1 (stereo not shown)	enzyme activity	–	1 µM	reference: DMSO control	remaining activity	81.8%

Excerpt of the above:
SMILES	assay	test system	conditions	scale	measurement	value
Nc1ncc(-c2cc(-c3cnn(CC(F)(F)F)c3)ncc2F)nc1C(=O)NC1CNCC(F)C1 (stereo not shown)	enzyme activity	–	1 µM	reference: DMSO control	remaining activity	81.8%
